# Measurements of several laboratories.
# Lines come from different studies, so protocols differ. Numbers after ± are the reported error.
SMILES,cell line,test,conditions,CC50 [µM]
OC(c1cc(C(F)(F)F)nc2c(C(F)(F)F)cccc12)C1CCCCN1 (stereo not shown),"Vero E6, uninfected",cytotoxicity,72 (unit not given),8.78
CCN(CC)C(=S)SSC(=S)N(CC)CC,RD,,"3 (unit not given), 33 °C, together with: MgCl2 30 mM",1.5
CC(=NNC(=S)N1CCC1)c1ccccn1,HepG2 cells,cell viability,24 h,< 1.56
O=c1c2ccccc2[se]n1-c1ccccc1,RD,,"3 (unit not given), 33 °C, together with: MgCl2 30 mM",5.4
c1cnc2c(c1)ccc1cccnc12,HepG2 cells,cell viability,24 h,1.28
CN1c2ccc(-c3ccc(C#N)cc3)cc2[C@H]2[C@H](CCN2C(=O)c2cccc(F)c2)[C@@H]1CO,"HEp-2, uninfected",,original sample,29
O=S(=O)(O)C(F)(F)C(F)(F)C(F)(F)C(F)(F)C(F)(F)C(F)(F)C(F)(F)C(F)(F)F,BeWo,,"24 h, vehicle co-incubation",725 ± 56.8
CN(C)c1ccc(/C=c2/c3cc(O)ccc3n3c2cc(-c2ccccc2)[n+]3C)cc1,HepG2 cells,cell viability,24 h,19.3
CC[C@H]1CN2CCc3cc(OC)c(OC)cc3[C@@H]2C[C@@H]1C[C@H]1NCCc2cc(O)c(OC)cc21,BHK-21,,24 (unit not given),18.4 ± 2.73
COc1ccc2c3c([nH]c2c1)[C@H](CO)N(Cc1ccccc1)CC31CCN(C(=O)Cc2ccccc2)CC1,"HEp-2, uninfected",,,99
CCCCCCCCCCCCCCCCSSCCOP(=O)(O)CO[C@H](C)Cn1cnc2c(N)ncnc21,human PBMC,cell growth or viability,,14.3
CCCCCCNC(=O)n1cc(F)c(=O)[nH]c1=O,RD,,"3 (unit not given), 33 °C, together with: MgCl2 30 mM",18.5
O=S(=O)(c1cccs1)N1CCCCN2[C@H](CO)[C@@H](c3ccc(/C=C/c4ccccc4)cc3)[C@@H]2C1,"HEp-2, uninfected",,,> 100
CCCCCCCCCCCCCCCCOP(=O)([O-])OCC[N+](C)(C)C,J774A.1,alamarBlue,,128 ± 8.85
Cc1cccc(-c2ccc([C@@H]3[C@@H](CO)N4CCCCN(S(=O)(=O)c5cn(C)cn5)C[C@@H]34)cc2)c1,"HEp-2, uninfected",,,56
CCCN(CCC)C(=S)NN=Cc1ccccn1.[Cl][Cu][Cl],HepG2 cells,cell viability,24 h,< 1.56

# Repeated from above:
SMILES,cell line,test,conditions,CC50 [µM]
O=c1c2ccccc2[se]n1-c1ccccc1,RD,,"3 (unit not given), 33 °C, together with: MgCl2 30 mM",5.4
c1cnc2c(c1)ccc1cccnc12,HepG2 cells,cell viability,24 h,1.28
CN1c2ccc(-c3ccc(C#N)cc3)cc2[C@H]2[C@H](CCN2C(=O)c2cccc(F)c2)[C@@H]1CO,"HEp-2, uninfected",,original sample,29
